# Measured values pooled from the literature.
# Compare with care: the assays were run in different laboratories. ± marks the error that the study gave.
# T1: mtrB 1-76 T49A/T52A (Alkalihalobacillus halodurans); chain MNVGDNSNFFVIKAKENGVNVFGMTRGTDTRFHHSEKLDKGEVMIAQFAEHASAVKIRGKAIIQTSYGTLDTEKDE; chain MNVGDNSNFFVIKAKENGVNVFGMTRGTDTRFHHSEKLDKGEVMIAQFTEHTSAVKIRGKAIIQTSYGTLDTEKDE
# UniProt Q99VT5, sequence (whole entry, looked up): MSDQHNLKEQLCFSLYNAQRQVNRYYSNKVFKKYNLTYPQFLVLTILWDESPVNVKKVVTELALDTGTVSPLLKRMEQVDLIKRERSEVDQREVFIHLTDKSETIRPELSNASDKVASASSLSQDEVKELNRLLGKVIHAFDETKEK
# UniProt O51941, sequence (whole entry, looked up): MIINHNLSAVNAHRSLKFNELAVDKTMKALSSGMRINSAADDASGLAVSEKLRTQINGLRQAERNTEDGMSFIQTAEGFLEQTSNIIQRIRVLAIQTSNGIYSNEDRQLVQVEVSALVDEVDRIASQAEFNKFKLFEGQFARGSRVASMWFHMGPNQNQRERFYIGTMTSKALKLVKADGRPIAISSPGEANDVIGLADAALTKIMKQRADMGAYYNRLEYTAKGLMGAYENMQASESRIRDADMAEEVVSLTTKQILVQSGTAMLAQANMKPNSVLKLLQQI
Substance,target or system,test,test system,setting,scale,endpoint,value
insulin human,,item: TGM5 mRNA,"EcoHIV-infected mouse, brain","i.p., dose not given",relative to: PBS,fold change,1.41
CAACTGGGTTTCAGGCGAAACATTCGGTCATG (dsDNA),"nalD full length assumed (Pseudomonas aeruginosa, UniProt Q9HY46)",EMSA,"double-stranded DNA, one strand shown",,,binding,binds
nonaarginine,PorA peptide pore,"peptide binding, planar bilayer single-channel recording",,"0.5 µM, pH 7.4, -40 mV, cis side, 150 mM KCl",,koff,5000 ± 500 s⁻¹
GTCTTTAATAATTAAACTAGTGTCTTGACAGATGTAAACAACAGGTATAAAC (dsDNA),"niaR 1-174 K97R (Streptococcus mutans, UniProt Q8DVX8)",EMSA,"double-stranded DNA, one strand shown",,,binding,binds
"RNA 1 AACAAAACAAAAUAGCACCGUAAAGC / RNA 2 GCUUUACGGUGCUA (dsRNA; 14 bp duplex, 5' 12 nt overhang)","DEAD-box ATP-dependent RNA helicase RhpA (Pseudomonas aeruginosa, UniProt Q9HX66)",fluorescence polarization,double-stranded RNA,,,Kd,0.0027 µM
GGGCGGGGGAGACAUAUAUCACAGCCUGUCUCGUGCCCGACCCCGCCC (RNA (Hepatitis C virus); hairpin; bulge; 12 nt apical loop),HNRNPA1 UP1 1-196 (Homo sapiens),ITC,folded RNA,,,Kd,0.243 ± 0.03 µM
CTCTATTTGCCTCCCTATACTTTTGAAAAACAGACAAATTCCATAACAGAAATTTGTCTGTTCGATAGAATAATTGAATGGTTTTTGATTTTAATGTGCAAAACTTTAAATTTATTAGTAGTCCATTCAATTATTCTCAATGCTAGTTATCTTACCTTATGCTGCTTTTTGTTTCTTCTTAT (dsDNA),"mgrA full length assumed (Staphylococcus aureus, UniProt Q99VT5)",EMSA,"double-stranded DNA, one strand shown",added: Montelukast absent,,Kd,4.3 ± 1.1 µM
GGAGACAUAUAUCACAGCCUGUCUCC (RNA (Hepatitis C virus); hairpin; 12 nt loop),HNRNPA1 UP1 1-196 (Homo sapiens),ITC,folded RNA,,,Kd,0.128 ± 0.006 µM
AUUUUAUGUUUCAGGU (ssRNA),"CSTF2 1-107 R46E (Homo sapiens, UniProt P33240)",ITC,RNA,27 °C,,binding,no binding
ATTAGTTTGTATGCAAACCATT (dsDNA),"MarR-family transcriptional regulator 1-147 (Clostridioides difficile, UniProt A0A9R0BIW1)",EMSA,"double-stranded DNA, one strand shown",,,binding,binds
Polymyxin B,,,"mouse, serum",20 mg/kg,,cystatin C level,39.8 ng/mL
GGGAGUCGACCGACCAGAAUGAUUGUUGUGUGUAUUGGGUGGCGGUAUGUGCGUCUACAUCUAGACUCAU (XNA; 2'-fluoro pyrimidines),"flaB 1-283 (Leptospira interrogans, UniProt O51941)",pull-down,modified nucleic acid,,,binding,binds
GAGUUGAGUUGAGUUGAGUUGAGUUGAGUUGAGUUGAGUUGAGUUGAGUUGAGUU (ssRNA; single-stranded),"T1, mtrB 1-76 T49A/T52A (Alkalihalobacillus halodurans)",filter binding,RNA,added: Trp 1 mM,,Kd,0.029 ± 0.009 µM
TTTATAAAAAACCAATATATGTCTTGACACATGTAAAAAACGTTGTATAATG (dsDNA),"niaR 1-174 (Streptococcus mutans, UniProt Q8DVX8)",EMSA,"double-stranded DNA, one strand shown",,,binding,binds
aspterric acid,,hypocotyl length,Arabidopsis thaliana Col-0 seeds,"6.25 µg/mL, 7 days, dark",,inhibition,69.5%
heparin sodium,,,healthy Chinese adult volunteers,"continuous intravenous infusion, 8 IU/kg/h, 5 days",,administration site extravasation,0%

# Excerpt of the above:
Substance,target or system,test,test system,setting,scale,endpoint,value
aspterric acid,,hypocotyl length,Arabidopsis thaliana Col-0 seeds,"6.25 µg/mL, 7 days, dark",,inhibition,69.5%
TTTATAAAAAACCAATATATGTCTTGACACATGTAAAAAACGTTGTATAATG (dsDNA),"niaR 1-174 (Streptococcus mutans, UniProt Q8DVX8)",EMSA,"double-stranded DNA, one strand shown",,,binding,binds
